Measurements gathered from unrelated publications.
Protocols differ between the studies behind these lines.
Cell line: MDA-MB-231

FC(F)(F)c1ccc(Cc2c[nH]c3ncc(C(F)(F)F)cc23)cc1 gave an inhibition of 20% (cell growth or viability; 10 µM, 72 h).
For N=C(N)NCCC[C@H](NC(=O)[C@H](Cc1c[nH]c2ccccc12)NC(=O)[C@H](CCC(N)=O)NC(=O)[C@H](Cc1c[nH]c2ccccc12)NC(=O)[C@@H](N)CCCNC(=N)N)C(=O)N[C@@H](Cc1c[nH]c2ccccc12)C(=O)N[C@@H](CCC(N)=O)C(=O)N[C@@H](Cc1c[nH]c2ccccc12)C(N)=O, the selectivity ratio was over 1 (relative to: MCF-12 IC50 over MDA-MB-231 IC50).
For Cc1[nH]nc2c1N=C(c1ccccc1Cl)c1cnc(N3CCOCC3)cc1N2, STAT3 phosphorylation read “inhibited” (Western blot; concentration not given, 24 h).
For Fc1ccc(F)c(Cc2c[nH]c3ncc(C(F)(F)F)cc23)c1, the inhibition was 14% (cell growth or viability; 10 µM, 72 h).
CC1OC2OC3C4=C(OC3(C)C12O)C(=O)c1c(O)cccc1C4=O (stereo not drawn) — result for “early apoptotic cells”: 49.7% (annexin V/PI flow cytometry; 2 µg/mL, 48 h).
CC(=O)N[C@@H](Cc1ccc(O)cc1)CN(CC(=O)N[C@@H](CCCCN)CN(CC(=O)N[C@@H](Cc1ccccc1)CN(CC(=O)N[C@H]1CCCCNc2c(F)c(F)c(c(F)c2F)S(=O)(=O)c2c(F)c(F)c(c(F)c2F)NCCCC[C@@H](CN(CC(=O)N[C@@H](C)CN(CC(N)=O)S(C)(=O)=O)S(C)(=O)=O)NC(=O)CN(S(=O)(=O)Cc2ccccc2)C[C@H](CC(C)C)NC(=O)CN(S(=O)(=O)CCN)C1)S(=O)(=O)CC(C)C)S(=O)(=O)CCN)S(C)(=O)=O has a GI50 of 8.7 µM (cell growth or viability, CCK-8; 72 h).
CC(=C(c1ccc(O)cc1)c1ccc(Cl)cc1)c1ccc(Cl)cc1 has a GI50 of 0.97 µM.
For N=C(N)NCCC[C@H](NC(=O)[C@H](Cc1c[nH]c2ccccc12)NC(=O)[C@H](CCC(N)=O)NC(=O)[C@H](Cc1c[nH]c2ccccc12)NC(=O)[C@H](CCCNC(=N)N)NC(=O)[C@H](Cc1c[nH]c2ccccc12)NC(=O)[C@H](CCC(N)=O)NC(=O)[C@H](Cc1c[nH]c2ccccc12)NC(=O)[C@@H](N)CCCNC(=N)N)C(N)=O, the selectivity ratio was over 1.3 (relative to: erythrocyte IC50 over MDA-MB-231 IC50).
Under “Bax protein level”, C=C[C@H](OC(C)=O)c1ccc(OC(C)=O)cc1 is recorded as 6.2 fold (Western blot; IC50, 24 h; relative to: untreated).
For CC(=O)O[C@H]1C(=O)[C@]2(C)[C@@H](OC(=O)[C@H](N)CSC3CC(=O)N(CCC(=O)Nc4ccc(-c5ccc(/N=N/c6ccc7c(S(=O)(=O)O)cc(S(=O)(=O)O)c(N)c7c6O)c(C)c5)cc4C)C3=O)C[C@H]3OC[C@@]3(OC(C)=O)[C@H]2[C@H](OC(=O)c2ccccc2)[C@]2(O)C[C@H](OC(=O)[C@H](O)[C@@H](NC(=O)c3ccccc3)c3ccccc3)C(C)=C1C2(C)C (stereo partly drawn), “late apoptotic cells” read 27.5% (annexin V/PI flow cytometry; concentration not given, 24 h).
C=CCc1ccc(OC(C)=O)c(OC)c1 gave an IC20 of 50 µM (cell growth or viability, MTT).
COc1ccc(OCC(=O)c2ccc(O)c(C)c2O)cc1 has an inhibition of 99% (cell growth or viability, MTT; 100 µM, 48 h).
With OC(c1cccc(OC(F)(F)F)c1)c1c[nH]c2ncc(C(F)(F)F)cc12 (stereo not drawn) the inhibition was 12% (cell growth or viability; 10 µM, 72 h).
Cc1ccc2c(n1)c1nc(C)ccc1c1nc3cc4ccccc4cc3nc21.[Ru+2].c1ccc(-c2cccc(-c3ccccn3)n2)nc1.c1ccncc1 gave a phototherapeutic index of 7.4 (relative to: dark EC50 over light EC50).
For N=C(N)NCCC[C@H](NC(=O)[C@H](Cc1c[nH]c2ccccc12)NC(=O)[C@H](CCC(N)=O)NC(=O)[C@@H](N)Cc1c[nH]c2ccccc12)C(=O)N[C@@H](Cc1c[nH]c2ccccc12)C(=O)N[C@@H](CCC(N)=O)C(=O)N[C@@H](Cc1c[nH]c2ccccc12)C(N)=O, the selectivity ratio was 1 (relative to: MCF-12 IC50 over MDA-MB-231 IC50).
With COc1cccc(Cc2c[nH]c3ncc(C(F)(F)F)cc23)c1 the inhibition was 15% (cell growth or viability; 10 µM, 72 h).
CCC(C(=O)O)C1CCC(C)C(C(C)C(O)C(C)C(=O)C(CC)C2OC3(C=CC(=O)C4(CCC(C)(C5CCC(O)(CC)C(C)O5)O4)O3)C(C)CC2C)O1 (stereo not drawn) gave a combination index of 1.9 (MTT; together with: benzhydroxamic acid 142.0 µM).
Cc1ccc(C(C)C)cc1.O=C(N=P(c1ccccc1)(c1ccccc1)c1ccccc1)c1ccccn1.[Cl-].[Cl][Ru+] gave an apoptotic cells of 46% (Annexin V/PI flow cytometry; IC50, 24 h).
COc1cccc(C(O)c2c[nH]c3ncc(C(F)(F)F)cc23)c1 (stereo not drawn) has an inhibition of 6% (cell growth or viability; 10 µM, 72 h).
The EC50 of CC(=O)c1cccc(NC2C(N)C(NC(=O)N(C)C)(C(C)O)C(O)C2(O)COC(=O)c2c(C)cccc2O)c1 (stereo not drawn) is reported as 0.05 µM (cell growth or viability).
With CN[C@@H](C)C(=O)N[C@H]1CN(C(=O)Cc2ccccc2)CC[C@H]2CC[C@@H](C(=O)NCc3ccc(Br)cc3)N2C1=O the onset concentration was over 30 nM (cIAP1 degradation, western blot, refers to: cIAP1; 24 h).
For FC(F)(F)Oc1cccc(Cc2c[nH]c3ncc(C(F)(F)F)cc23)c1, the inhibition was 25% (cell growth or viability; 10 µM, 72 h).
O=C(Cc1ccccc1)Nc1nc2ccccc2n1Cc1ccccc1 gave a protein level of 36% (western blot, refers to: HIF-1α; 10 µM, 24 h, normoxia; relative to: vehicle).
CC(=O)N[C@@H](Cc1ccc(O)cc1)CN(CC(=O)N[C@@H](CCCCN)CN(CC(=O)N[C@@H](Cc1ccccc1)CN(CC(=O)N[C@H]1CCCCNc2c(F)c(F)c(c(F)c2F)S(=O)(=O)c2c(F)c(F)c(c(F)c2F)NCCCC[C@@H](CN(CC(=O)N[C@@H](C)CN(CC(N)=O)S(C)(=O)=O)S(C)(=O)=O)NC(=O)CN(S(=O)(=O)CC(C)C)C[C@H](Cc2ccccc2)NC(=O)CN(S(=O)(=O)CCN)C1)S(=O)(=O)CC(C)C)S(=O)(=O)CCN)S(C)(=O)=O gave a GI50 of 7.95 µM (cell growth or viability, CCK-8; 72 h).
CCCCCCCCCCCCCCCOC(=O)/C=C/c1cc(O)c(O)c(OC)c1: “cells in S phase” 20% (propidium iodide flow cytometry; concentration not given, 24 h).
For C=C1C(=O)OC2CC3=C[C@@H](C/C(C)=C/C(OC(=O)Cc4cccc5ccccc45)[C@H]12)OC3=O (stereo partly drawn), the sub-G1 cells was 21.4% (flow cytometry; 3.8 µM, 48 h).
CC12CCC3c4ccc(OCCCOc5no[n+]([O-])c5S(=O)(=O)c5ccccc5)c(Br)c4CCC3C1CCC2O (stereo not drawn): “ERK1/2 protein level” “decreased” (western blot; 80 nM, 24 h).
Under cellular uptake, CC1(C)C(=CC=C2C[N+](C)(C)CC(C=CC3=[N+](CCCCCC(=O)O)c4ccccc4C3(C)C)=C2Cl)N(CCCCCC(=O)O)c2ccccc21 is recorded as “no effect” (together with: FBS 10%; relative to: serum-free medium).
For C/C(=N\N(c1ccccc1)c1ccccc1)c1ccc(O)cc1, “cyclin A protein level” read “decreased” (Western blot; concentration not given, 48 h, together with: estradiol 1 nM).
For Clc1ccc2ccc3[n+](c2c1)[Ir-3]12([c]4ccccc4-3)([c]3ccccc3-c3ccc4ccc(Cl)cc4[n+]31)[n+]1ccccc1-c1cccc[n+]12.F[P-](F)(F)(F)(F)F, mRNA level read “inhibited” (qPCR, refers to: c-Myc; 3 µM).
CC1(C)C(=CC=C2CCCC(C=CC3=[N+](CCCCCC(=O)O)c4ccccc4C3(C)C)=C2c2ccccc2)N(CCCCCC(=O)O)c2ccccc21 — result for cellular uptake: “decreased” (serum-free medium; together with: 250 µM bromosulfophthalein; relative to: no bromosulfophthalein).
C=CC(OC(C)=O)c1cc(OC)c(OC(C)=O)c(OC)c1 (stereo not drawn): “cleaved PARP level” 1.8 fold (Western blot; IC50, 24 h; relative to: untreated).
With C[C@@H]1O[C@H]2O[C@@H]3C4(O)C(=O)c5cccc(O)c5C(=O)C4(O)O[C@]3(C)[C@]21O (stereo partly drawn) the EC50 was 23.5 mg/L (cell growth or viability, MTT; 48 h).
With Cc1cccc(O)c1C(=O)OCC1(O)C(Nc2cccc3ccccc23)C(N)C(NC(=O)N(C)C)(C(C)O)C1(C)O (stereo not drawn) the EC50 was 1.84 µM (cell growth or viability).
COC(=O)C1CCCN1C(=O)C(Cc1ccccc1)N(C)C(=O)CC(O)C(CC(C)C)NC(=O)C(CC(C)C)N(C)C(=O)C(CC(C)C)NC(=O)C(O)C(C)C (stereo not drawn) — result for “pathway activation z-score”: 2 (RNA-seq pathway analysis, refers to: unfolded protein response; 40 µM, 12 h; direction not given).
For COc1ccc(C=CC(=O)c2cccc(O)c2)cc1, “cyclin A protein level” read “decreased” (Western blot; concentration not given, 48 h, together with: estradiol 1 nM).
For CN[C@@H](C)C(=O)N[C@H]1CN(C(=O)Cc2ccccc2)CC[C@H]2CC[C@@H](C(=O)NCc3ccc(C(F)(F)F)cc3)N2C1=O, “minimum effective concentration” read 300 to 1000 nM (apoptosis, annexin V/PI flow cytometry; 24 h).
The selectivity ratio of N=C(N)NCCC[C@H](NC(=O)[C@H](Cc1c[nH]c2ccccc12)NC(=O)[C@H](CCC(N)=O)NC(=O)[C@H](Cc1c[nH]c2ccccc12)NC(=O)[C@H](CCCNC(=N)N)NC(=O)[C@H](Cc1c[nH]c2ccccc12)NC(=O)[C@H](CCC(N)=O)NC(=O)[C@@H](N)Cc1c[nH]c2ccccc12)C(N)=O is reported as over 1 (relative to: MCF-12 IC50 over MDA-MB-231 IC50).
CCCCCCCCCCCCCC(=O)N1CCC[C@H]1C(=O)N[C@@H](CO)C(=O)N[C@@H](CCC(N)=O)C(=O)N[C@@H](CO)C(=O)N[C@@H](CCCCNC(=O)c1ccc(Br)cc1)C(=O)N[C@@H](CO)C(=O)N[C@@H](CCCCNC(=O)c1ccc(Br)cc1)C(=O)N[C@@H](C)C(=O)O has an apoptotic cells of 61% (annexin V/PI flow cytometry; 200 µM, 48 h).
CC(C)C1=C(O)C(=O)C2=C(C1=O)[C@H](O)[C@@H](O)[C@H]1C(C)(C)CCC[C@]21C gave a GI50 of over 100 µM (cell growth or viability, SRB; 48 h).
The phospho-Akt reduction of C=CC(OC(C)=O)c1ccc(OC(C)=O)c(OC)c1 (stereo not drawn) is reported as 70 to 94% (Western blot, refers to: phospho-Akt/Akt; concentration not given, 24 h).
The TGI of CC/C=C\C/C=C\C/C=C\C/C=C\C/C=C\C/C=C\CCC(=O)Nc1ccn(C2OC(CO)C(O)C2(F)F)c(=O)n1 (stereo not drawn) is reported as 22.2 µM (NCI60 screen).

Excerpt of the above:
CC(=C(c1ccc(O)cc1)c1ccc(Cl)cc1)c1ccc(Cl)cc1 has a GI50 of 0.97 µM.
C=CCc1ccc(OC(C)=O)c(OC)c1 gave an IC20 of 50 µM (cell growth or viability, MTT).
The selectivity ratio of N=C(N)NCCC[C@H](NC(=O)[C@H](Cc1c[nH]c2ccccc12)NC(=O)[C@H](CCC(N)=O)NC(=O)[C@H](Cc1c[nH]c2ccccc12)NC(=O)[C@H](CCCNC(=N)N)NC(=O)[C@H](Cc1c[nH]c2ccccc12)NC(=O)[C@H](CCC(N)=O)NC(=O)[C@@H](N)Cc1c[nH]c2ccccc12)C(N)=O is reported as over 1 (relative to: MCF-12 IC50 over MDA-MB-231 IC50).
For C/C(=N\N(c1ccccc1)c1ccccc1)c1ccc(O)cc1, “cyclin A protein level” read “decreased” (Western blot; concentration not given, 48 h, together with: estradiol 1 nM).
O=C(Cc1ccccc1)Nc1nc2ccccc2n1Cc1ccccc1 gave a protein level of 36% (western blot, refers to: HIF-1α; 10 µM, 24 h, normoxia; relative to: vehicle).
With OC(c1cccc(OC(F)(F)F)c1)c1c[nH]c2ncc(C(F)(F)F)cc12 (stereo not drawn) the inhibition was 12% (cell growth or viability; 10 µM, 72 h).
